Results from different studies.
Every numbered part comes from another study and shows a few of its results, in no order.

Set 1 — technique: RNA Bind-n-Seq; molecule type: RNA; medium: in vitro; tested at: 200 nM; setting: whole 134-nt RNA, ends assumed; together with: 150 mM LiCl; reference: input library; reading: higher = stronger binding; library: 7-deaza-guanosine replaces G
Target: Ras GTPase-activating protein-binding protein 1, full length (G3BP1, Homo sapiens, UniProt Q13283)
Chain of UniProt Q13283 (whole entry, looked up): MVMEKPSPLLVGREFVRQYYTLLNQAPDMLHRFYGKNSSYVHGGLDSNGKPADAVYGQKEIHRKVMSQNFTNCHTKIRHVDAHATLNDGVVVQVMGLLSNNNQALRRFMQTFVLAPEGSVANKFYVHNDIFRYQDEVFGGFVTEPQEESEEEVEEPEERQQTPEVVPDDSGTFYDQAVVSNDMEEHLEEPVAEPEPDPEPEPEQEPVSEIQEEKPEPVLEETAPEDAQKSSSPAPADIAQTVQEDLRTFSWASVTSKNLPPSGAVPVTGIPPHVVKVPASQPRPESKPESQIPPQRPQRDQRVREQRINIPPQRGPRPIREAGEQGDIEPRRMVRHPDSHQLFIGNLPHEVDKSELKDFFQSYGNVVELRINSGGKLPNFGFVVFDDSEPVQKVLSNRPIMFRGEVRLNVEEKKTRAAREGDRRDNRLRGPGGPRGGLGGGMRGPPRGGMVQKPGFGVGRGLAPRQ
`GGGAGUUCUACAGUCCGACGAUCCACAGACAACUCGCACCCACACAGACACAGAGGGAAGGGGUUGGGAUGGGGACAGGGUGCACAGCAGGGCGGGGUAGGACCCCAGCCCCUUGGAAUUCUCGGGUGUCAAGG` gave a log2 enrichment of -0.00536.
The log2 enrichment of `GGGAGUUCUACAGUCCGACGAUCAGUCCUGUGCUACACAUCGUAUGUACCGAAUCGGGUUUUGGGGUUUUGGUUUUGGGGAAAGUAUUAUGUUACGCCGUUCGGAUCUGCACUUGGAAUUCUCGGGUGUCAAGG` is reported as -0.587.
For `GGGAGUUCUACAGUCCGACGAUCUCAAGUCCUGUGCUACACAUCGUAUGUACCGAAUCGGGGUUUGGUUUGGGUUUGGAAAGUAUUAUGUUACGCCGUUCGGAUCUGCACUUCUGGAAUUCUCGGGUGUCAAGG`, the log2 enrichment was -0.461.
`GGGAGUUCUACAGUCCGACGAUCCUCAAGUCCUGUGCUACACAUCGUAUGUACCGAAUCGGAAGGAAGGGGAAGGGGAAAGUAUUAUGUUACGCCGUUCGGAUCUGCACUUCCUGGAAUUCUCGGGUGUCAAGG` has a log2 enrichment of 0.102.
`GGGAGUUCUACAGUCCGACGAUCUCAAGUCCUGUGCUACACAUCGUAUGUACCGAAUCGGAAAAAAAGGAGGAAAGGAAAGUAUUAUGUUACGCCGUUCGGAUCUGCACUUCCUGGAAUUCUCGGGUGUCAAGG` has a log2 enrichment of -0.369.
With `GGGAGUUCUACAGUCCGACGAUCGCAGGAAGUAAAAACAAAUGGAAAUGCUUCGGAUAGUGGCAGGGGUGGUGGUUGCUAAGGAAAGGGUGGGAUGGGAGUGGGUAAAGAGUUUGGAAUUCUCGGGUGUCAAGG` the log2 enrichment was 0.223.
The log2 enrichment of `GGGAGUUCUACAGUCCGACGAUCUUAAGGGAAUCUAUUGCUGAACACAAACCUCAUAUUGACAAACUACUAAAGAUAGGCCCACAACUAAAGGAAUUAAACCCUGAGGAAGGGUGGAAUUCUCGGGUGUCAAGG` is reported as 0.201.
For `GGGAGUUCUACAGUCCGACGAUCUCCUGUGCUACACAUCGUAUGUACCGAAUCGGGGAAAGGGGUUUUUGGGGUUUUUGGGGAAAGUAUUAUGUUACGCCGUUCGGAUCUGCAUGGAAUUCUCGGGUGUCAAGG`, the log2 enrichment was -0.0381.

Set 2 — technique: protein binding microarray; molecule type: double-stranded DNA, one strand shown; medium: in vitro; tested at: not given; reference: not given; reading: higher = stronger binding
Target: Histone acetyltransferase KAT6A, winged helix 2, GST fusion (KAT6A, Homo sapiens, UniProt Q92794, residues 85-181)
Setting: 8-mer, flanks averaged, mean of 2 arrays, mostly near background
Residues (chain): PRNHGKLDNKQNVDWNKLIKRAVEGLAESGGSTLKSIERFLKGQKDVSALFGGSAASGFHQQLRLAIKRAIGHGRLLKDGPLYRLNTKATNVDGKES
The E-score of `CGTACTAG` is reported as 0.04.
With `ACGCACGA` the E-score was 0.173.
`GCCAACAC` gave an E-score of 0.15.
`AGTCCCAG` has an E-score of 0.011.
The E-score of `AGGCGACA` is reported as 0.0442.
With `ATAGATTG` the E-score was -0.0393.
The E-score of `ATGTAAGC` is reported as -0.0665.
`CTGCGCAG` gave an E-score of 0.129.
`TAATCACA` has an E-score of -0.101.
With `GTGATCGA` the E-score was 0.112.
`AGATCAGA` gave an E-score of -0.086.
With `CTGGTAGC` the E-score was 0.122.
For `CCACTCGG`, the E-score was 0.0912.
The E-score of `CGACCCGA` is reported as 0.154.
`ACGCGCGT` gave an E-score of 0.225.
For `CCGCGAGG`, the E-score was 0.227.
`AGATTGAT` gave an E-score of -0.0795.
With `AATCCCAT` the E-score was -0.179.
`GAATGGTC` has an E-score of -0.123.
`ACAGTCAC` has an E-score of -0.25.
`AAGTTACA` has an E-score of -0.0713.
The E-score of `GCTTTGTA` is reported as 0.134.
For `AGTTGTGC`, the E-score was -0.00976.
`GCGGCCAA` has an E-score of 0.146.
`CATTTTAG` gave an E-score of 0.0835.

Set 3 — technique: RNA Bind-n-Seq; molecule type: RNA; medium: in vitro; tested at: 365 nM; reference: no-protein control; reading: higher = stronger binding
Target: RNA binding protein fox-1 homolog 2, RRM domain, GST-SBP tag (RBFOX2, Homo sapiens, UniProt O43251-10, residues 100-194)
Setting: natural RNA segment, single round, ends assumed
Construct (chain): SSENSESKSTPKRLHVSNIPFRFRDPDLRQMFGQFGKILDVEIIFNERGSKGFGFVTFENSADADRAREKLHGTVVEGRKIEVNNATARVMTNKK
Under “RBNS enrichment (R)”, `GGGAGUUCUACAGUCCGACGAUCAUAAUUUUGGAAUUUGUUUCUCAUAAUACAGAAUAUAUAGUGGCUACCUUGUAUCUUGGUCUGGAUUCUCUCUCUGAGACCCCGGAUUUUACUUUCUCUUUGGAGGGCGCUGGAAUUCUCGGGUGCCAA` is recorded as 0.364.
For `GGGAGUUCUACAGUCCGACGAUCUCUCAGGGGGCUGUGUCUGAGUGACGGGUGUAUGUCUGUCUCAGAGAAUGUGUGUCUGUGGCCCCAAGUAGGUGAUAGGGAGAGACGGGGGCACCACAACCAACUCAGUGUGGAAUUCUCGGGUGCCAA`, “RBNS enrichment (R)” read 2.82.
For `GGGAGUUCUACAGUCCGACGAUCCCUGCCCGGUGCCUCCCACUGACCUGAGCUUACUAAGGGAUGGCAGCAGCUCCCCAGAAAAAAACGACACUGCGAGCCCUCGGGACAUGACUGAGUUCCACCUCCUGAAGUGGAAUUCUCGGGUGCCAA`, “RBNS enrichment (R)” read 0.477.
For `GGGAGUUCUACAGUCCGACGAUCUCUCCCUGUGUUCUGGGCUGGGGCCACCUUUGUGCAGCUUCGAGGACAGGAAAGGCCCCAAUCUUGCCCACUGGCCGCUGAGCGCCCCCGAGCCCUGACUCCUGGACUCCUGGAAUUCUCGGGUGCCAA`, “RBNS enrichment (R)” read 0.343.
`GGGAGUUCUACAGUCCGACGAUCUUCAUGAACAUCUUUGAUCCUUCCAUUUCAUUUAUUCAUCCAUCCAUUCAACAAGUAUUUGCUAAACACUAACUUAAGCUAAUGCUAGGGUAGUGACUGAGAUGUAAAAAUGGAAUUCUCGGGUGCCAA`: “RBNS enrichment (R)” 0.261.
`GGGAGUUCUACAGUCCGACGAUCACCACAGCCAUUCAGGAACUACCCCCUGCCCCACAAAGAAAUGAACAGUUGUAGGGAGACCCAGCAGCACCUUUCCUCCACACACCUUCAUUUUGAUGUUCGGGUUUUUGUGGAAUUCUCGGGUGCCAA` — result for “RBNS enrichment (R)”: 0.691.
For `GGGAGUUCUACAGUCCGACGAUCUGAAUCCAGGAGGUGGAGCUUGCAGUGAGCCGAGACCGUGCCACUGCACUCCAGCCUGGGCAACACAGCGAGACUCCGUCUCGAGGAAAAAAAAAGAAAAGAUACGUGCCUGGAAUUCUCGGGUGCCAA`, “RBNS enrichment (R)” read 0.261.
`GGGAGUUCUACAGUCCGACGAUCCCCUUUGUGAGUGUCUCAGUCUAGAGGUACCUCCCUCCCUGGGGGGUCUCAGCUCCUGGAGUCGCAGGCCCUUGGGGCCCCUCUGUGAGAUCUCAAUGCUGUCUGGGGACUGGAAUUCUCGGGUGCCAA` — result for “RBNS enrichment (R)”: 0.417.

Set 4 — technique: aptamer microarray, sandwich; molecule type: DNA with 2'F-ANA; medium: in vitro; tested at: 200 nM; together with: Cy3 exosite-II aptamer, 400 nM; reading: higher = stronger binding; oligonucleotide: GGTTGGTGTGGTTGG
Target: Prothrombin, mature alpha-thrombin (F2, Homo sapiens, UniProt P00734)
Setting: whole 15-mer aptamer, many near background
`2'F-ANA at 1 2 8 10 12`: “mean fluorescence intensity” 70.4 a.u.
For `2'F-ANA at 1 2 6 11 13`, “mean fluorescence intensity” read 106 a.u.
Under “mean fluorescence intensity”, `2'F-ANA at 1 3 5 6 8 10 11 12 14` is recorded as 98.8 a.u.
`2'F-ANA at 1 5 6 8 14`: “mean fluorescence intensity” 47.9 a.u.
For `2'F-ANA at 1 2 3 5 10 11 12 14`, “mean fluorescence intensity” read 44.7 a.u.
For `2'F-ANA at 6 7 10 13`, “mean fluorescence intensity” read 161 a.u.
For `2'F-ANA at 1 2 3 5 8 12 13 14`, “mean fluorescence intensity” read 45.6 a.u.
For `2'F-ANA at 3 8 9 11 13 14 15`, “mean fluorescence intensity” read 484 a.u.
`2'F-ANA at 1 2 4 6 7 9 10 14 15` — result for “mean fluorescence intensity”: 50.3 a.u.
`2'F-ANA at 1 3 4 6 8 10 11 12 13 14`: “mean fluorescence intensity” 51.9 a.u.
Under “mean fluorescence intensity”, `2'F-ANA at 2 5 6 10 11 14 15` is recorded as 59.9 a.u.
Under “mean fluorescence intensity”, `2'F-ANA at 4 7 8 10 12 15` is recorded as 223 a.u.
For `2'F-ANA at 1 2 3 4 5 7 9 12 14 15`, “mean fluorescence intensity” read 73.5 a.u.
`2'F-ANA at 4 5 6 8 11 12`: “mean fluorescence intensity” 118 a.u.
`2'F-ANA at 2 3 4 5 6 9 14 15`: “mean fluorescence intensity” 47.5 a.u.
For `2'F-ANA at 3 4 8 10 13`, “mean fluorescence intensity” read 235 a.u.
Under “mean fluorescence intensity”, `2'F-ANA at 1 2 5 6 8 11 13` is recorded as 193 a.u.
`2'F-ANA at 1 3 4 5 8 10 13 14`: “mean fluorescence intensity” 45.8 a.u.
Under “mean fluorescence intensity”, `2'F-ANA at 1 2 3 4 5 9 11 12 13 14 15` is recorded as 57.1 a.u.
`2'F-ANA at 1 5 6 7 8 9 11 12 13 14 15` — result for “mean fluorescence intensity”: 50.7 a.u.

A few entries again (set 4):
`2'F-ANA at 1 2 8 10 12`: “mean fluorescence intensity” 70.4 a.u.
For `2'F-ANA at 1 2 6 11 13`, “mean fluorescence intensity” read 106 a.u.
Under “mean fluorescence intensity”, `2'F-ANA at 1 3 5 6 8 10 11 12 14` is recorded as 98.8 a.u.
`2'F-ANA at 1 5 6 8 14`: “mean fluorescence intensity” 47.9 a.u.
For `2'F-ANA at 1 2 3 5 10 11 12 14`, “mean fluorescence intensity” read 44.7 a.u.
For `2'F-ANA at 6 7 10 13`, “mean fluorescence intensity” read 161 a.u.
For `2'F-ANA at 1 2 3 5 8 12 13 14`, “mean fluorescence intensity” read 45.6 a.u.
For `2'F-ANA at 3 8 9 11 13 14 15`, “mean fluorescence intensity” read 484 a.u.
`2'F-ANA at 1 2 4 6 7 9 10 14 15` — result for “mean fluorescence intensity”: 50.3 a.u.
